Assay results of several laboratories.
Compare with care: the assays were run in different laboratories. Numbers after ± are the reported error.

`[2H]C([2H])([2H])NC(=O)c1ccc(N2C(=S)N(c3ccc(C#N)c(C(F)(F)F)c3)C(=O)C2(C)C)cc1F` has a Tmax of 2 h (human, male; oral, 160 mg, single dose, fed, median).
With `CC(O)c1nc(-c2ccc3c(c2)CCC3NC(=O)c2cnn(C)c2)no1` (stereo not drawn) the Tmax was 5 h (human, plasma; oral, 20 mg, single dose, median).
`C=CC(=O)Nc1cc(Nc2nccc(-c3cn(C4CC4)c4ccccc34)n2)c(OC)cc1N(C)CCNC` has a Tmax of 6.5 ± 2.52 h (healthy Chinese male human, plasma; oral, 110 mg almonertinib, metabolite, [14C] single dose, fasted).
With `CCc1cc(Nc2nc(-c3ccc(-n4cnc(C)c4)c(F)c3)cs2)c(C)cc1C` the Tmax was 3.7 h (human, both sexes, plasma; oral, 200 mg once daily, day 14, multiple dose, geometric mean).
`CC(C)(O)c1ncc([S@](N)(=O)=NC(=O)Nc2c3c(cc4c2CCC4)CCC3)s1` gave a Tmax of 2 h (healthy human, fasted; oral, 100 mg single dose, capsule formulation).
`Cc1ccccc1-c1cc(N2CCNCC2)ncc1N(C)C(=O)C(C)(C)c1cc(C(F)(F)F)cc(C(F)(F)F)c1` gave a Tmax of 10 to 17 h (human, plasma; dose not given).
With `O=C(CCc1ccc(CNC(C(=O)OC2CCCC2)C2CCCCC2)cn1)NO` (stereo not drawn) the Tmax was less than 1 h (human; oral, multiple dose).
With `Cn1c(=O)oc2ccc(-c3ccc(CC(C#N)NC(=O)C4CNCCCO4)c(F)c3)cc21` (stereo not drawn) the Tmax was 1 h (human volunteers, plasma; 15 mg single dose, fasted, median).
With `[2H]C([2H])([2H])Oc1cc2c(cc1OC([2H])([2H])[2H])[C@H]1CC(=O)[C@H](CC(C)C)CN1CC2` the Tmax was 0.67 h (human CYP2D6 extensive metabolizers, plasma; oral, 25 mg, fasted, median).
`CCc1c2c(nc3ccc(O)cc13)-c1cc3c(c(=O)n1C2)COC(=O)[C@]3(O)CC` gave a Tmax of 1.86 h (human patients, plasma; intravenous, 100 mg/m^2 of parent drug).
`COCC1CN(C2CCN(c3cc(OC)c(Nc4ncc(Br)c(Nc5ccc6c(c5P(C)(C)=O)OCCO6)n4)cc3C)CC2)C1` has a Tmax of 1.98 to 4.01 h (human, plasma; oral, 10 to 240 mg, median single dose first-in-human).
`CC(=O)N[C@H](CC(=O)O)C(=O)N[C@H](Cc1c[nH]c2ccccc12)C(=O)N[C@H](Cc1ccccc1)C(=O)N[C@H](CCCCN)C(=O)N[C@H](C)C(=O)N[C@H](Cc1ccccc1)C(=O)N[C@H](Cc1ccc(O)cc1)C(=O)N[C@H](CC(=O)O)C(=O)N[C@H](CCCCN)C(=O)N[C@@H](C(=O)N[C@H](C)C(=O)N[C@H](CCC(=O)O)C(=O)N[C@H](CCCCN)C(=O)N[C@H](Cc1ccccc1)C(=O)N[C@H](CCCCN)C(=O)N[C@H](CCC(=O)O)C(=O)N[C@H](C)C(=O)N[C@H](Cc1ccccc1)C(N)=O)C(C)C` has a Tmax of 1.65 h (human, statin-treated high-risk CHD, both sexes, plasma; oral, 500 mg daily, day 13, mean, detected subjects only).
`CC12CC(c3ccc(S(C)(=O)=O)cc3)C3=C4CCC(=O)C=C4CCC3C1CCC2(O)C(F)(F)C(F)(F)F` (stereo not drawn) has a Tmax of 2.25 h (human, plasma; oral, 4 mg, dosed on day 4, median, added: itraconazole 200 mg/day).
`Cc1nc(C)c(C=[N+]([O-])C(C)(C)C)nc1C` has a Tmax of 2.56 h (healthy Chinese human, both sexes, serum; oral, 1200 mg twice daily, 7 days).
With `Nc1ncnc(NCC2CCN(C(=O)C(O)CO)CC2)c1-c1ccc(Oc2ccccc2)cc1` (stereo not drawn) the Tmax was 1 h (male humans, plasma; oral, 75 mg evobrutinib, metabolite).
With `CN1CCN(c2cc(-c3ccccc3CO)c(N(C)C(=O)C(C)(C)c3cc(C(F)(F)F)cc(C(F)(F)F)c3)cn2)CC1` the Tmax was 10 to 17 h (human, plasma; dose not given).
With `CCCCCCCOc1ccc(CC[C@](N)(CO)COP(=O)(O)O)cc1C(F)(F)F` the Tmax was 8 to 12 h (healthy human males, plasma; oral, 0.125 to 0.75 mg, day 21, median across doses).
For `O=C(CCc1ccc(CNC(C(=O)O)C2CCCCC2)cn1)NO` (stereo not drawn), the Tmax was less than 1 h (human; oral, multiple dose).

Excerpt of the above:
With `CC(O)c1nc(-c2ccc3c(c2)CCC3NC(=O)c2cnn(C)c2)no1` (stereo not drawn) the Tmax was 5 h (human, plasma; oral, 20 mg, single dose, median).
`C=CC(=O)Nc1cc(Nc2nccc(-c3cn(C4CC4)c4ccccc34)n2)c(OC)cc1N(C)CCNC` has a Tmax of 6.5 ± 2.52 h (healthy Chinese male human, plasma; oral, 110 mg almonertinib, metabolite, [14C] single dose, fasted).
